Measurements of several laboratories.
Compare with care: the assays were run in different laboratories. Several values in a cell are separate wells, animals, samples, runs or records. ± marks the error that the study gave.
Slc6a4: Sodium-dependent serotonin transporter (Slc6a4, Rattus norvegicus, UniProt P31652)
Chain of UniProt P31652 (whole entry, looked up): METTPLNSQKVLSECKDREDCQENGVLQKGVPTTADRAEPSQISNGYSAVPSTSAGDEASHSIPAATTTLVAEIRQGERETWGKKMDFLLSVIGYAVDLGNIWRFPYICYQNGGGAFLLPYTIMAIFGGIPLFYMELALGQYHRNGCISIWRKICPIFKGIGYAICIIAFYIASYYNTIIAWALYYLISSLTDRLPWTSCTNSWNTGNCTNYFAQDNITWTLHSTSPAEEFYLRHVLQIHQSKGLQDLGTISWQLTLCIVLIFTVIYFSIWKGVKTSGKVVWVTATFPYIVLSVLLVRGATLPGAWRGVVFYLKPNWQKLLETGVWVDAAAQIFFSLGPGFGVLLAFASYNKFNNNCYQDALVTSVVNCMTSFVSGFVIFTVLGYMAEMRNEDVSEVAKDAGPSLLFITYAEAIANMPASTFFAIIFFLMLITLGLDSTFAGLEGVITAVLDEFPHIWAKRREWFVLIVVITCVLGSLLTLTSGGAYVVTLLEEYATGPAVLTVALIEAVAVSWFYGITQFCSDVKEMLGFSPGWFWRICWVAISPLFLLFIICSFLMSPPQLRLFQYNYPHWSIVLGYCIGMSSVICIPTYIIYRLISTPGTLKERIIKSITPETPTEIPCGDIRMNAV
4'-phosphopantetheinyl transferase PptT: 4'-phosphopantetheinyl transferase PptT (Mycobacterium tuberculosis, UniProt O33336)
Chain of UniProt O33336 (whole entry, looked up): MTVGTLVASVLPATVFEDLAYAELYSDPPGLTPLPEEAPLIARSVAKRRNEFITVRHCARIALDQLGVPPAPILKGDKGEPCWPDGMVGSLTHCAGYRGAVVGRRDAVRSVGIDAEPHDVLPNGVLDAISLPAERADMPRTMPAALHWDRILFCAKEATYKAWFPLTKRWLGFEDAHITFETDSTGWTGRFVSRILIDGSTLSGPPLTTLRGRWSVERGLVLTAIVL
AMC4: Metacaspase-4 (AMC4, Arabidopsis thaliana, UniProt O64517)
Chain of UniProt O64517 (whole entry, looked up): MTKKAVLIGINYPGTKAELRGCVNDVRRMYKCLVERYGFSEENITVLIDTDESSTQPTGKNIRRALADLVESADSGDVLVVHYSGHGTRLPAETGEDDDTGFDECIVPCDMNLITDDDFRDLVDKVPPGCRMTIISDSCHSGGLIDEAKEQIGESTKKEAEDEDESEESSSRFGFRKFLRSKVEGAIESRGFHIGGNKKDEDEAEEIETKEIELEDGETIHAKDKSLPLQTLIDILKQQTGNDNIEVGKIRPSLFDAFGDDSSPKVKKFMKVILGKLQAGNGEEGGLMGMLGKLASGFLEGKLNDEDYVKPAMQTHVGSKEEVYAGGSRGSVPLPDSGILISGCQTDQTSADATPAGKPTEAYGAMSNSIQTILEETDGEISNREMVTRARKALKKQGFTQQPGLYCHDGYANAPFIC
Chain of UniProt Q9HAC7 (whole entry, looked up): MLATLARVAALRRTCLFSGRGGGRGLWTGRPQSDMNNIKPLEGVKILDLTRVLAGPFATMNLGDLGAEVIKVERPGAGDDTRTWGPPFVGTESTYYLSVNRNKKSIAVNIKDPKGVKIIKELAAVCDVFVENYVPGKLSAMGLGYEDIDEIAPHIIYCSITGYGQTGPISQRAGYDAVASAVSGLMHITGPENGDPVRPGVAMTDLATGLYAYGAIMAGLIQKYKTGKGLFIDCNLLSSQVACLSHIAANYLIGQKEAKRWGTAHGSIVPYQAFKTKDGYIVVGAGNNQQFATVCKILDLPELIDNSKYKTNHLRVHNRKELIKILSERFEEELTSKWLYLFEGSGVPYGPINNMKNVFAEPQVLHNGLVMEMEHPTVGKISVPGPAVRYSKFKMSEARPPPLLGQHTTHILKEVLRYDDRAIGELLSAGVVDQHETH
Chain of UniProt P00346 (whole entry, looked up): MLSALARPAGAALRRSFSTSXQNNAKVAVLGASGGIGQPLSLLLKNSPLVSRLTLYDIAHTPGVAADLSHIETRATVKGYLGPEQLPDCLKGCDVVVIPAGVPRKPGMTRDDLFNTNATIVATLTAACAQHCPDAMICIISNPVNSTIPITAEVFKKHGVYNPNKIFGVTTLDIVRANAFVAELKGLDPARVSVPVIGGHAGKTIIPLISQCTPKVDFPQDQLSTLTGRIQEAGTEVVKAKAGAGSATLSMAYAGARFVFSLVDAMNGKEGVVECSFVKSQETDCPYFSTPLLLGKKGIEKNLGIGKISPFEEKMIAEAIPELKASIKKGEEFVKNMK

CCNC(CC)C(=O)c1ccc2c(c1)OCO2 (centres unmarked)  IC50 (Slc6a4; rat): 0.69 ± 0.05 µM
CCNC(=NC(=O)OC(C)(C)C)NC(=O)Nc1c(CC)cc(NS(=O)(=O)c2ccccc2)cc1CC  IC50 (4'-phosphopantetheinyl transferase PptT; inhibitor): > 100 µM
O=C1NC(=S)N(c2ccccc2)C(=O)C1=Cc1ccc(O)cc1  IC50 (AMC4; enzyme activity, inhibitor; pH 7.5, 50 mM CaCl2, with: VRPR-AMC 50 µM): > 200 µM
CNC(C)C(=O)c1ccc2c(c1)OCO2 (centres unmarked)  IC50 (Slc6a4; rat): 1.58 ± 0.18 µM
CCCCC(=O)N(Cc1ccc(-c2ccccc2-c2nnn[nH]2)cc1)[C@H](C(=O)O)C(C)C  IC50 (Succinyl-CoA:glutarate CoA-transferase (SUGCT, Homo sapiens, UniProt Q9HAC7); enzyme activity, inhibitor, fluorometric coupled; pH 7.44, 100 mM Tris-HCl buffer): 16.3 µM
O=C1NC(=S)NC(=O)C1=CC=Cc1ccco1  IC50 (AMC4; enzyme activity, inhibitor; pH 7.5, 50 mM CaCl2, with: VRPR-AMC 50 µM): > 200 µM
Cc1nc2ccc(CN(C)c3ccc(C(=O)N[C@@H](CCC(=O)O)C(=O)O)s3)cc2c(=O)[nH]1  IC50 (4'-phosphopantetheinyl transferase PptT; enzyme activity, inhibitor, fluorescence polarization): 0.096 µM
CCc1cccc(CC)c1NC(=O)NC(=N)N  IC50 (4'-phosphopantetheinyl transferase PptT; inhibitor): ≥ 23 µM and > 23 µM
COc1cc(C=C2C(=O)NC(=S)N(c3cccc(Cl)c3)C2=O)cc(Br)c1O  IC50 (AMC4; enzyme activity, inhibitor; pH 7.5, 50 mM CaCl2, with: VRPR-AMC 50 µM): > 200 µM
CCc1cccc(CC)c1NC(=O)NC(=N)NC(=O)Nc1c(CC)cccc1CC  IC50 (4'-phosphopantetheinyl transferase PptT; inhibitor): > 100 µM
C=C(C)[C@@H]1CCC(C)=C[C@H]1c1c(O)cc(CCCCC)c(C(=O)O)c1O  IC50 (MDH2 (Sus scrofa, UniProt P00346)): 97 µM
